Measurements of several laboratories.
Each numbered part is a random draw from the data of one study; scales do not carry over between parts. Substitutions count along the parent as printed.

Series 1 — method: universal PBM; molecule type: double-stranded DNA, one strand shown; medium: in vitro; concentration: 600 nM; reading: higher = stronger binding
Target: Sal-like protein 4, full length isoform A (SALL4, Homo sapiens, UniProt Q9UJQ4, residues 1-1053)
UniProt Q9UJQ4, sequence (whole entry, looked up): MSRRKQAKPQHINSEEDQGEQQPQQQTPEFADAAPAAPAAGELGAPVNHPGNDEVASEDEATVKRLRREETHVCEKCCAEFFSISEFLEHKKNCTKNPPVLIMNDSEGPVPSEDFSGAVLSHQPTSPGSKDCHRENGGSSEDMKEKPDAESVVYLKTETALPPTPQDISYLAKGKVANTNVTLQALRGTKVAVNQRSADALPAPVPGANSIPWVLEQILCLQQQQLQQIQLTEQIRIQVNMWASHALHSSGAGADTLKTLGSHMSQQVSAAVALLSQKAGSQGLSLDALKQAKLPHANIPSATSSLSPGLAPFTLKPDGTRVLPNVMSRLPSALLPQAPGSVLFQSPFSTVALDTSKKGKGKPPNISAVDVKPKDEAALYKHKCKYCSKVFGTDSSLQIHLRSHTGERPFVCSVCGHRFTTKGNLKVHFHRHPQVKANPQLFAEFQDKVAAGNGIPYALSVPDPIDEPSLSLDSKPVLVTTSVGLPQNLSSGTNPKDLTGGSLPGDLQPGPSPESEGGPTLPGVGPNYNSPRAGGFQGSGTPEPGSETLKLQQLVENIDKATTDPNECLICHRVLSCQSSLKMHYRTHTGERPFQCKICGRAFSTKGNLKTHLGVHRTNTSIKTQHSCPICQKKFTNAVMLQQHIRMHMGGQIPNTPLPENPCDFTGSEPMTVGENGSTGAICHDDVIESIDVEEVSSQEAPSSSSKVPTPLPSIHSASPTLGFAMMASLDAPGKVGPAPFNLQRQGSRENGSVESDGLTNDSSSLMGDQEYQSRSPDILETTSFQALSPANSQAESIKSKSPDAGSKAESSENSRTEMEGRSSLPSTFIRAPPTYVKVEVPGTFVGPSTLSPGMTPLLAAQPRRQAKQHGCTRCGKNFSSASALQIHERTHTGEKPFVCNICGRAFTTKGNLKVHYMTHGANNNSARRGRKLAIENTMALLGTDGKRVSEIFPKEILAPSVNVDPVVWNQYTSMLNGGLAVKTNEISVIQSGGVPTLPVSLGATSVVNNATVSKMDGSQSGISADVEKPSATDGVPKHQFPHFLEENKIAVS
Notes: 8-mer, flanks averaged, mean of replicates
Strand	E-score
CCAAGTCC	-0.211
ACAGTCGC	-0.176
AGTGGCAA	0.162
CGGGAGAG	-0.187
ATCTTGTC	0.139
CATCCACC	-0.0883
GAAGCTCC	-0.234
GTCATGAC	0.0132
CTACCAAG	-0.059
CTCAAAAC	0.15
AGAATGTG	0.00417
ACCGAAGA	0.0766
CGGTGAGC	-0.305
AAAAGTCC	-0.0834
CATTAGTC	-0.00266
CGGAATAG	-0.0999
CATCAATG	0.0619
GGCACAAC	-0.0139
CTACTAAA	0.128
GGAATAAC	0.0505
CCTAAATC	0.00251

Series 2 — method: RNA Bind-n-Seq; molecule type: RNA; medium: in vitro; concentration: 20 nM; notes: 6-mer, flanks averaged, single round; with: 150 mM LiCl; relative to: input library; reading: higher = stronger binding
Target: TAR DNA-binding protein 43, full length, His tag (TARDBP, Homo sapiens, UniProt Q13148, residues 1-414)
Strand	6-mer enrichment (R)
CACAAC	0.848
CCUAUA	0.924
AUGCAC	0.901
UGCGUG	1.54
CAUACA	0.839
GCGAUC	0.901
UUAUAC	0.939
GUGUCA	1.04
CAUUCU	0.893
AUUUCA	0.908
GGUAAA	0.954
ACUACA	0.842
GCAUUA	0.897
GAUUAU	0.913
CAACUU	0.868
GCACUU	0.888
GCACAC	0.922
GCUGGG	1.15
GAGUUA	0.991
CAAUUU	1.03
GGCCAC	0.972
CCAGUG	1.02
AUUCAU	0.907
AAUUCC	0.911
CUGCCU	0.959

Series 3 — method: protein binding microarray; molecule type: double-stranded DNA, one strand shown; medium: in vitro; concentration: not given; relative to: not given; reading: higher = stronger binding
Target: Histone acetyltransferase KAT6A, winged helix 2, GST fusion (KAT6A, Homo sapiens, UniProt Q92794, residues 85-181)
Notes: 8-mer, flanks averaged, mean of 2 arrays, mostly near background
Target sequence (chain): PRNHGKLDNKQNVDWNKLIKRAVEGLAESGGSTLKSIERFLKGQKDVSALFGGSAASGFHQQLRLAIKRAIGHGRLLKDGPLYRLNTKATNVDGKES
Strand	E-score
GCCCCCCC	0.0442
CTTGGATC	-0.0393
AAATCGAT	0.0964
AGATCTAA	-0.0243
AATCAGGA	-0.05
GAGGCCGA	0.0644
GCGGCTCA	0.134
CACGACAC	-0.0391
AGGTAGTG	-0.199
CGGAACAG	0.0368
AGGTACCA	-0.119
GGATTCGA	0.025
GTGGCGAA	0.23
ACAATGGT	-0.204
ATTTATTG	-0.13
CCCATGGA	-0.197
GGGCGGAA	0.116
ATAAATGC	-0.00143
GTGGTACA	-0.0976
AAGTAGAA	-0.11
GCATTAGC	0.0547
CATCCGAA	0.0954
ATCCGTAA	-0.156
ACTCATTG	-0.123
ACTGTTAG	-0.173

Series 4 — method: RNA Bind-n-Seq; molecule type: RNA; medium: in vitro; concentration: 200 nM; notes: whole 134-nt RNA, ends assumed; with: 150 mM KCl; relative to: input library; reading: higher = stronger binding
Target: Fragile X messenger ribonucleoprotein 1, C-terminal low-complexity region (Fmr1, Mus musculus, UniProt P35922)
Strand	log2 enrichment
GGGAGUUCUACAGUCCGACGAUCCUCAAGUCCUGUGCUACACAUCGUAUGUACCGAAUCGGAAAGGAAAAAGGUGGAAAGUAUUAUGUUACGCCGUUCGGAUCUGCACUUCCAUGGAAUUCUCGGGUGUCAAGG	-0.242
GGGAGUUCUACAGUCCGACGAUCAAGUCCUGUGCUACACAUCGUAUGUACCGAAUCGGGGUUUGGGGUUUGGGUUUGGGAAAGUAUUAUGUUACGCCGUUCGGAUCUGCACUUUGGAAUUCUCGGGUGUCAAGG	0.785
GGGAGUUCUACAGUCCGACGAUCCACAGACAACACGCACCCACACAGACACACAGGGAAGGGGUUGGGAUGGGGACAGGGUGCACAGCAGGGCGGGGUAGGACCCCAGCCCCUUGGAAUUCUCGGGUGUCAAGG	1.27
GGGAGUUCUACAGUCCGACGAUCUCCUCAAGUCCUGUGCUACACAUCGUAUGUACCGAAUCGGGCGGGGCGGCGGAAAGUAUUAUGUUACGCCGUUCGGAUCUGCACUUCCAGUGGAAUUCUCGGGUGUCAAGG	0.0691
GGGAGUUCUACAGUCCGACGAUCGUCCUGUGCUACACAUCGUAUGUACCGAAUCGUGUGUGUGUGUGUGUGUGUGUGUGUGUAAAGUAUUAUGUUACGCCGUUCGGAUCUGCAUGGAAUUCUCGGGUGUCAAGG	0.53
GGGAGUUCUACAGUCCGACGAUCUUCAGUUGGAUGGAUUUAUUGCUCGAAACUGGGCCAAUCAAAGAUCAGCUUUGGGAAGUGCUCUUGAUCCACUUGCUGAUAAAAUACUUAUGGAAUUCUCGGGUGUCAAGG	-1.3
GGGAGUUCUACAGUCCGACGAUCCAAGUCCUGUGCUACACAUCGUAUGUACCGAAUCGGAAAAAAAGGAAAGGAAAGGAAAGUAUUAUGUUACGCCGUUCGGAUCUGCACUUCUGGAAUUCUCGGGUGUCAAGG	-0.917
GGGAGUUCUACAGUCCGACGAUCCCUGUGCUACACAUCGUAUGUACCGAAUCGGCCCCCCCGGGCCCCCCCGGGGCCCCCCCGGAAAGUAUUAUGUUACGCCGUUCGGAUCUGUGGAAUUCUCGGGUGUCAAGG	-0.675
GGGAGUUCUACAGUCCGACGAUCGUCCUGUGCUACACAUCGUAUGUACCGAAUCGGAAAAAGGGGAAAAAGGGGAAAAAGGGAAAGUAUUAUGUUACGCCGUUCGGAUCUGCAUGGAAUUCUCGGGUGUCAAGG	-0.024

Series 5 — method: aptamer microarray, sandwich; molecule type: DNA with 2'F-ANA; medium: in vitro; concentration: 200 nM; with: Cy3 exosite-II aptamer, 400 nM; reading: higher = stronger binding; strand: GGTTGGTGTGGTTGG
Target: Prothrombin, mature alpha-thrombin (F2, Homo sapiens, UniProt P00734)
Notes: whole 15-mer aptamer, many near background
Modification	mean fluorescence intensity
2'F-ANA at 4 7 10 11 12 13 14	58.7 a.u.
2'F-ANA at 2 4 7 8 9 10 12 13 14	66.8 a.u.
2'F-ANA at 2 7 8 9	519 a.u.
2'F-ANA at 1 2 5 6 11 13 14 15	49.7 a.u.
2'F-ANA at 4 6 8 9 10 11 13 14 15	55.4 a.u.
2'F-ANA at 2 3 4 5 9 14	49.5 a.u.
2'F-ANA at 1 2 3 4 6 7 9 10 12 14 15	50.5 a.u.
2'F-ANA at 1 3 4 5 8 9 10 11 14	56.3 a.u.
2'F-ANA at 4 7 11 12 13 14 15	103 a.u.
2'F-ANA at 2 3 5 6 7 8 10 11	49.6 a.u.
2'F-ANA at 1 3 7 8 9 10 12 14 15	122 a.u.
2'F-ANA at 3 8 10 11 12 13 15	573 a.u.
2'F-ANA at 1 2 3 5 6 7 8 9 11	61.2 a.u.
2'F-ANA at 1 5 6 7 9 10 12 13 14 15	73.2 a.u.
2'F-ANA at 1 4 9 12 13 14	60.7 a.u.
2'F-ANA at 4 6 7 10 13	65.4 a.u.
2'F-ANA at 1 2 3 6 8 9 11 12 13 15	293 a.u.
2'F-ANA at 1 2 6 8 9 10 11 14	51.1 a.u.

Series 6 — target: CCNE2, cyclin fold, Cln2 fusion (human); method: yeast growth competition, sequencing; medium: yeast; notes: strong parent motif; relative to: not given; reading: higher = stronger binding
Parent: E2F1 docking peptide (human); PPVKRRLDFETDH; partner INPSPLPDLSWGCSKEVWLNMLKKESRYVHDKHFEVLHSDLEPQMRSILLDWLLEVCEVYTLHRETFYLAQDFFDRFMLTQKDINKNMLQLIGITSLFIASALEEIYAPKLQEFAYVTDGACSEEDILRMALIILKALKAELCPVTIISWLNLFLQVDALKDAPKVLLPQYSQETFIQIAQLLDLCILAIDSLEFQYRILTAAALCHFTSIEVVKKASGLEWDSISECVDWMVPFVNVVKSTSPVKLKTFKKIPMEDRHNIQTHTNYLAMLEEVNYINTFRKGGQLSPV
Change	normalised enrichment score
K4C	5.03
D8N	6.44
K4V	5.58
L7P	0.122
R6H	1.45
R5I	0.251
F9Y	1.37
L7I	3.91
K4Y	1.05
F9N	0.314
P2L	4.83
L7R	0.0774
D12N	6.4
E10I	5.62
V3G	1.29
R5M	0.127
R6T	3.06
D8Q	5.82
R6E	1.25
L7N	0.181
T11H	5.81
V3K	0.848
R5A	0.333
L7H	0.128
T11A	5.15

Some of these lines once more (series 3):
Strand	E-score
AAATCGAT	0.0964
AGGTAGTG	-0.199
GAGGCCGA	0.0644
AATCAGGA	-0.05
AAGTAGAA	-0.11
CGGAACAG	0.0368
GCGGCTCA	0.134
CATCCGAA	0.0954
ATAAATGC	-0.00143
GTGGTACA	-0.0976
CTTGGATC	-0.0393
GGATTCGA	0.025
